# Experimental data gathered from unrelated publications.
# Each line is one published result; not all experiments were run side by side. Values joined by “and” are separate records of one study, mostly repeats; a detail may differ. ± gives the spread as reported.
# uncharacterized protein: uncharacterized protein (Spodoptera exigua, UniProt F1CEY0)
# Sequence of UniProt P51575 (whole entry, unmodified, looked up): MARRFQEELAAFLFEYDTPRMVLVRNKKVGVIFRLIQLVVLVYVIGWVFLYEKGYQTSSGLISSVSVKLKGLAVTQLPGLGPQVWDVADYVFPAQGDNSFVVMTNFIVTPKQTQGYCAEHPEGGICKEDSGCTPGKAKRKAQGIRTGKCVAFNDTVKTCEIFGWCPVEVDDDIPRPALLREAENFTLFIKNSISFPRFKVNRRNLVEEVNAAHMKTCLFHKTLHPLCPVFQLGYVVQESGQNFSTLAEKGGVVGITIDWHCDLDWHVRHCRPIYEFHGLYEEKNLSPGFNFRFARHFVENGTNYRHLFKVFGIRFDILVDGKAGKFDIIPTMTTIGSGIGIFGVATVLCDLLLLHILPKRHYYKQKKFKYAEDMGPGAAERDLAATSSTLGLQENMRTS
# Sequence of UniProt P00441 (whole entry, unmodified, looked up): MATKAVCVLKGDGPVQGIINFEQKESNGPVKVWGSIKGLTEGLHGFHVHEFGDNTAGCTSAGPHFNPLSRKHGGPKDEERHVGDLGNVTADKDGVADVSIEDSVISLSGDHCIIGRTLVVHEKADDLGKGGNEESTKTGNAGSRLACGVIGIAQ
# Sequence of UniProt O75385 (whole entry, looked up): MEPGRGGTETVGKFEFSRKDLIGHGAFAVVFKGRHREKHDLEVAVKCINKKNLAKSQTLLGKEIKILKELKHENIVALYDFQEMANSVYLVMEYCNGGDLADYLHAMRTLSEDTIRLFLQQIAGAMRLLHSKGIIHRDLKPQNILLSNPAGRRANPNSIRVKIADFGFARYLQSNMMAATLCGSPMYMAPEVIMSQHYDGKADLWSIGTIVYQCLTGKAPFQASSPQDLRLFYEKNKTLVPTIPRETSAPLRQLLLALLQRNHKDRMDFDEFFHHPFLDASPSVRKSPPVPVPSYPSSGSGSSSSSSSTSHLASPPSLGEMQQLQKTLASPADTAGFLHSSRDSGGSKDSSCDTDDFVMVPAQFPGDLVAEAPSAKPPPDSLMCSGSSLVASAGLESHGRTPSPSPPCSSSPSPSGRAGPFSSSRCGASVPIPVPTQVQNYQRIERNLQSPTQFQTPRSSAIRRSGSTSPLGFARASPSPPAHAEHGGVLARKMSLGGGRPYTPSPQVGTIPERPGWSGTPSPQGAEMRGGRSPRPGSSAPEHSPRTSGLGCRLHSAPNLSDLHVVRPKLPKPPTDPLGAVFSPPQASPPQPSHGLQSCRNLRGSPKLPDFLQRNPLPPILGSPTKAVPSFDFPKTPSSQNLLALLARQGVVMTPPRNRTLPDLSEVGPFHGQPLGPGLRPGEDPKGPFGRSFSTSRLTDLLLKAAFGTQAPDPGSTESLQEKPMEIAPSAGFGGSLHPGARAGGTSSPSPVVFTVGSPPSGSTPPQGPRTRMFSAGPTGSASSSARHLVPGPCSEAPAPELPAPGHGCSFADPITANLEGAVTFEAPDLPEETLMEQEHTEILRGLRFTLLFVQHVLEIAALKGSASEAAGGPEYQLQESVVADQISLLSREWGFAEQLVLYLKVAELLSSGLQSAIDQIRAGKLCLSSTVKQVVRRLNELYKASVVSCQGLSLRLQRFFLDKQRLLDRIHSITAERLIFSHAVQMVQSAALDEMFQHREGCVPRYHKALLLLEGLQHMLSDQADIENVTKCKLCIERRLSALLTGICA
# Sequence of UniProt P52790 (whole entry, unmodified, looked up): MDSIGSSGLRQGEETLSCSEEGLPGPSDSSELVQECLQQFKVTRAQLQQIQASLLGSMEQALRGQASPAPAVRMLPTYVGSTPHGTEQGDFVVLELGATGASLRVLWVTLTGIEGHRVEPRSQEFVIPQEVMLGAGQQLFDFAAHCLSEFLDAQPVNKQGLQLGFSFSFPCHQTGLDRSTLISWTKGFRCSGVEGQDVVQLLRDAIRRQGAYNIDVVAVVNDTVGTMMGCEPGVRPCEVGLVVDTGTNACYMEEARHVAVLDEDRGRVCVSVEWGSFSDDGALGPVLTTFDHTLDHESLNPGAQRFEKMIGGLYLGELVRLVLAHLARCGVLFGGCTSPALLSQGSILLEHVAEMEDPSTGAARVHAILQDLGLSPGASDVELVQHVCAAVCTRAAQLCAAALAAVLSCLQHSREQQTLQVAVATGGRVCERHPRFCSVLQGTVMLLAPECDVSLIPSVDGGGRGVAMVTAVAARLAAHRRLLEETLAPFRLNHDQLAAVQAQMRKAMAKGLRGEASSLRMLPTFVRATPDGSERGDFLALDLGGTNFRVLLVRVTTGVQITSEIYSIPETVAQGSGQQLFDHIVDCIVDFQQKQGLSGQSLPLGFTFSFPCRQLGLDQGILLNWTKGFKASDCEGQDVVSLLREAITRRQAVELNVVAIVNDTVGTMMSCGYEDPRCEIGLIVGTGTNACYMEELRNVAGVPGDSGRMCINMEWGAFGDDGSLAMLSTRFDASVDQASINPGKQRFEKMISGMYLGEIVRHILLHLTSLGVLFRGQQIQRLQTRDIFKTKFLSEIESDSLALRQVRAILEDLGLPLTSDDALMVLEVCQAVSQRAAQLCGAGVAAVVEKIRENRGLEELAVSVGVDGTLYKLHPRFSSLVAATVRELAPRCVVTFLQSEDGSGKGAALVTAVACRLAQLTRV
# Sequence of UniProt P11388 (whole entry, looked up): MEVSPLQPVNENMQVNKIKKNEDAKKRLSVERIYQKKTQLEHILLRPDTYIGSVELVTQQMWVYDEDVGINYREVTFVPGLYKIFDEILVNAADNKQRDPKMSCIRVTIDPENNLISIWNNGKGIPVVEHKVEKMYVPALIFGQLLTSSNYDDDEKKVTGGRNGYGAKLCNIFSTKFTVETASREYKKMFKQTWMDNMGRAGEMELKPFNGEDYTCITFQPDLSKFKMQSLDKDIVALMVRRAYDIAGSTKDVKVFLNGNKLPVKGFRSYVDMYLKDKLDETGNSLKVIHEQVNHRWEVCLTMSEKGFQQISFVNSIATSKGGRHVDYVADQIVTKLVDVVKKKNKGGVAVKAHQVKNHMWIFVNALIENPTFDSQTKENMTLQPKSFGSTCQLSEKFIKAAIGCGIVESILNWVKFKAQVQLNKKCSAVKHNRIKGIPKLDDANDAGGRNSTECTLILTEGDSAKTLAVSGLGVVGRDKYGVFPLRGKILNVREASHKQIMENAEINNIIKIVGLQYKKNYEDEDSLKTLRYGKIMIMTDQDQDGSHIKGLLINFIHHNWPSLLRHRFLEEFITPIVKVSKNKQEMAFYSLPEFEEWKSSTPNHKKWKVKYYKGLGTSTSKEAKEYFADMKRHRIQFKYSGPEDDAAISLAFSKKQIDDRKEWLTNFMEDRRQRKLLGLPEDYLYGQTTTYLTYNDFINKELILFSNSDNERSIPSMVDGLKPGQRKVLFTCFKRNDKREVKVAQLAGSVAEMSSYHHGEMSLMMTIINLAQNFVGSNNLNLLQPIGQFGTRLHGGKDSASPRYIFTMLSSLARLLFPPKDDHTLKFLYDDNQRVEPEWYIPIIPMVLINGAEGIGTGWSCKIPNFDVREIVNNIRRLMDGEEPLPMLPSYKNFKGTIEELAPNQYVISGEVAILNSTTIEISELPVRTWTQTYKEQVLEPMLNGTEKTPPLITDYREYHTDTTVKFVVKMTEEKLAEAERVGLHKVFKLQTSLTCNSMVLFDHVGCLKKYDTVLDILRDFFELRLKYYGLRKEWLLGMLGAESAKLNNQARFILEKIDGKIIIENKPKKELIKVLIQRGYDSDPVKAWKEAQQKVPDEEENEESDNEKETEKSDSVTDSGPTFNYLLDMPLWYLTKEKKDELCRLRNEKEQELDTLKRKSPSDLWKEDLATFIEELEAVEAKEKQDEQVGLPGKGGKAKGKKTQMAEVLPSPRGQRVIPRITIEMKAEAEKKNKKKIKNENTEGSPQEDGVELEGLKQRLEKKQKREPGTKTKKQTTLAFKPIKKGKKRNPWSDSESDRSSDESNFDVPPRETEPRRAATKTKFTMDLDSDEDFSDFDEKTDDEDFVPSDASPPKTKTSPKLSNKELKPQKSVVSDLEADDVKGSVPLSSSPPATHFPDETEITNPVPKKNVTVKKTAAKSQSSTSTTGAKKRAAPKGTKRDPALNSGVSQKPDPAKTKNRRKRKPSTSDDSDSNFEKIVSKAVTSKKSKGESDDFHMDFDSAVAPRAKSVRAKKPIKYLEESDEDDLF
# Sequence of UniProt Q02127 (whole entry, looked up): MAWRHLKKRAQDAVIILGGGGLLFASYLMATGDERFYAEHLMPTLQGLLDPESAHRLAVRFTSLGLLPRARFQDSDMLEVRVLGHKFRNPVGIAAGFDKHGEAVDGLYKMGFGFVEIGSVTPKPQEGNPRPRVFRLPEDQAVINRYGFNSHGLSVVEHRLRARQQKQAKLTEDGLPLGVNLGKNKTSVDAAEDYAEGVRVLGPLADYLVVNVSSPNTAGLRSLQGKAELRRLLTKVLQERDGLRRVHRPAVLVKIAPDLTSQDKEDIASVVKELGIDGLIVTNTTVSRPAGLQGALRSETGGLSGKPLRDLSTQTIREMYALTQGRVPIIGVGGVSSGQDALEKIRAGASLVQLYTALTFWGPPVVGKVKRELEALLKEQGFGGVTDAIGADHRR
SMILES,target,assay,test system,conditions,scale,measurement,value
Cc1occc(=O)c1[O-].[Cl-].[W+4].c1cc[cH-]c1.c1cc[cH-]c1,"Albumin (ALB, Homo sapiens, UniProt P02768)",fluorescence quenching,,310 K,,Stern-Volmer quenching constant,15100 L/mol
CCCCCCO,uncharacterized protein,"binding, 1-NPN competitive displacement",,"protein 2.0 µM, with: 1-NPN 20 µM","baseline: 1-NPN without compound, lower = stronger binding",relative fluorescence,65.7%
N[C@H](CNC(=O)c1cc(Br)c(-c2ccccc2F)s1)C(=O)O,"Glutamate receptor ionotropic, NMDA 1, with GluN2A (Grin1, Rattus norvegicus, UniProt P35439)",,,with: glutamate 300 µM,,Hill slope,1.48
NCCCCC(=O)O,"Sodium- and chloride-dependent taurine transporter (SLC6A6, Homo sapiens, UniProt P31641, G62A)","binding, microscale thermophoresis",,"15.6 µM, room temperature, with: 50 nM labelled protein",higher = more binding,normalised MST signal,0.0329
Nc1ncnc2c1ncn2[C@@H]1O[C@H](COP(=O)(O)CP(=O)(O)OP(=O)(O)O)[C@@H](O)[C@H]1O,"P2X purinoceptor 1 (P2RX1, Homo sapiens, UniProt P51575, L218T)",calcium influx,,316 nM,baseline: ionomycin response,calcium influx,97.4% and 97.2% and 94.5%
Nc1ncnc2c1ncn2[C@@H]1O[C@H](COP(=O)(O)OP(=O)(O)OP(=O)(O)O)[C@@H](O)[C@H]1O,"Creatine kinase U-type, mitochondrial (CKMT1A, Homo sapiens, UniProt P12532, D359N)","substrate, ADP-Glo luminescence",,"pH 8.5, forward reaction, D321N mutant, with: second substrate in excess",,kcat,11 ± 5 s⁻¹
CC12CCC(CC1=O)C2(C)C (stereo not drawn),uncharacterized protein,"binding, competitor, fluorescence displacement",,"20 µM, pH 7.4, with: 1-NPN 20 µM",baseline: 1-NPN alone,relative fluorescence,72.8%
O=c1nc(SCc2cc(F)cc(C(F)(F)F)c2)nc(SCc2ccc3sccc3c2)[nH]1,"DNA topoisomerase 2-alpha (TOP2A, Homo sapiens, UniProt P11388)",DNA cleavage,,"31.25 µM, replicate 1",,linear DNA,1.18%
OC[C@H]1OC(O)[C@H](O)[C@@H](O)[C@@H]1O (stereo partly drawn),"Hexokinase-3 (HK3, Homo sapiens, UniProt P52790, N221A)",substrate inhibition,,"mutant N221A, partial substrate inhibition model, with: ATP 20 mM",,V∞/Vmax ratio (b),0.4 ± 0.01
[O-][S+]1CCCCS1 (stereo not drawn),"Superoxide dismutase [Cu-Zn] (SOD1, Homo sapiens, UniProt P00441, G94A)",intact protein LC-MS,"SOD1 G93A transgenic mice, whole blood","intravenous, 10 mg/kg, 4 h",,target engagement,53.1% and 53%
C#Cc1c(F)ccc2cc(O)cc(-c3ncc4c(N5CC6CCC(C5)N6)nc(OC[C@@]56CCCN5C[C@H](F)C6)nc4c3F)c12,"GTPase KRas, GppNHp-bound (KRAS, Homo sapiens, UniProt P01116, A146T)",binding,,,,dissociation rate constant,0.00494 ± 0.00098 s⁻¹
CC[C@H](C)[C@@H]1NC(=O)[C@H](CO)NC(=O)[C@@H]2CCCN2C(=O)[C@@H](NC(=O)CN)CSSC[C@@H]2NC(=O)CNC(=O)[C@H](C)NC(=O)[C@H](CC(C)C)NC(=O)[C@@H]3CSSC[C@@H](C(=O)NCC(=O)O)NC(=O)[C@H](Cc4ccccc4)NC(=O)CNC(=O)[C@H](CC(N)=O)NC(=O)[C@@H]4CCCN4C(=O)CNC(=O)[C@H](CSSC[C@H](NC(=O)[C@H](CCCNC(=N)N)NC(=O)[C@H](CCC(N)=O)NC(=O)[C@H](CCCNC(=N)N)NC(=O)[C@H](CCCCN)NC(=O)[C@H](C(C)C)NC(=O)[C@H](CO)NC(=O)[C@H](CC(N)=O)NC1=O)C(=O)N[C@@H](CCCCN)C(=O)N[C@@H](CCC(N)=O)C(=O)N[C@@H](CC(=O)O)C(=O)N[C@@H](CO)C(=O)N[C@@H](CC(=O)O)C(=O)N3)NC(=O)[C@H](C(C)C)NC2=O,"Low-density lipoprotein receptor-related protein 6, E1 domain (LRP6, Homo sapiens, UniProt O75581)","binding, SPR",,pH 7.5,,kon,1.79e+06 ± 330000 M⁻¹ s⁻¹
Cc1c(-c2ccc(-c3ccccc3F)cc2)nc2ccc(F)cc2c1C(=O)O,"Dihydroorotate dehydrogenase (quinone), mitochondrial (DHODH, Homo sapiens, UniProt Q02127)","enzyme activity, inhibitor, DCIP reduction",,0.005 µM,higher = more activity,reaction rate,-21.9 a.u.
CC[C@@H]1[C@H](F)C(=O)N[C@@H]1COc1nccc2cc(C(N)=O)c(OC)cc12,"Serine/threonine-protein kinase ULK1 (ULK1, Homo sapiens, UniProt O75385)","ATP-site probe binding, ActivX profiling",THP-1 cell lysate,"0.01 mM, Lys1 site",,inhibition,4.8%
CN(C)C(=O)C(CCN1CCC(O)(c2ccc(Cl)cc2)CC1)(c1ccccc1)c1ccccc1,"Calcium-activated potassium channel subunit alpha-1, with LRRC26 γ1 subunit (KCNMA1, Homo sapiens, UniProt Q12791)","BK current, inhibitor, inside-out patch clamp",excised membrane patch,"0.3 µM, γ1 subunit coexpressed, with: nominally 0 Ca2+ cytosolic",baseline: without loperamide,normalized Gmax,0.784

# For quick reference, copied from above:
SMILES,target,assay,test system,conditions,scale,measurement,value
CC12CCC(CC1=O)C2(C)C (stereo not drawn),uncharacterized protein,"binding, competitor, fluorescence displacement",,"20 µM, pH 7.4, with: 1-NPN 20 µM",baseline: 1-NPN alone,relative fluorescence,72.8%
Cc1occc(=O)c1[O-].[Cl-].[W+4].c1cc[cH-]c1.c1cc[cH-]c1,"Albumin (ALB, Homo sapiens, UniProt P02768)",fluorescence quenching,,310 K,,Stern-Volmer quenching constant,15100 L/mol
